# Experimental data pooled from the literature.
# A part holds a random share of what one study measured. Positions count from the first letter of the parent shown.

# Series 1 — technique: DHFR PCA, deep sequencing; medium: yeast; together with: (+)-ABA 0.11 µM; relative to: wild-type fitted maximum; direction: higher = stronger binding
# Target: ABI1, truncated, D143A, DHFR fusion (Arabidopsis thaliana)
# Setting: methotrexate growth selection, single substitutions
# Starting sequence: PYL1, truncated, DHFR fusion (Arabidopsis thaliana); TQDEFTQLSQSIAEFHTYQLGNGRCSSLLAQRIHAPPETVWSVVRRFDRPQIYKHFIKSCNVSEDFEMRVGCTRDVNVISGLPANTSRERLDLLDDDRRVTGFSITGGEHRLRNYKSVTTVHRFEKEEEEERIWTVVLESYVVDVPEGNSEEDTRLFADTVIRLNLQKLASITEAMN; partner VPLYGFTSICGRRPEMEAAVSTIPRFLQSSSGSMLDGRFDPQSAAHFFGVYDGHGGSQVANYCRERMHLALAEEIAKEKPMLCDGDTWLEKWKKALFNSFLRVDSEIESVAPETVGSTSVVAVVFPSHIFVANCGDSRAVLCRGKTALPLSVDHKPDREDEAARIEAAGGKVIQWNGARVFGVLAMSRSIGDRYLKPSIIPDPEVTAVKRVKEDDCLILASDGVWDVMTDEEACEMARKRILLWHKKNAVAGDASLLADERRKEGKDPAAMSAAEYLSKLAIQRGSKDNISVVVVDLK
Variant,relative binding score [%]
D95G,-7.82
R123K,61.9
D48C,-2.33
F47M,-1.14
C72E,23.4
Q10C,13
D3Y,38.4
R88N,12.4
S63A,55.9
E4Y,24
D97R,21.2
V40F,-8.38

# Series 2 — target: Sox-I, HMG box (Salpingoeca helianthica); technique: Spec-seq; form: double-stranded DNA, one strand shown; medium: in vitro; concentration: not given; setting: whole probe, mean of replicates; relative to: not given; direction: lower = stronger binding; shared flanks, not repeated: GAGTCGTCTCGTCAGCAC … CCGTAGAGCACTCAGGTC
# Target sequence (chain): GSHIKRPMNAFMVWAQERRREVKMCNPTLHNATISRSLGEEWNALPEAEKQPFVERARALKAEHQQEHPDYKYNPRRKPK
Sequence,relative binding energy [ln ratio]
CATTGAG,0.552
CATCCGG,1.07
CATCAAC,0.413
CAGAGTT,0.75
CATTTGA,1.02
TCGCGTT,0.879
CACTGTT,-0.725
CGTAGTT,0.622
CATCTCG,1.07
GCCTGTT,-0.42
CATCAAG,0.581
CATCACT,0.273
CATAAGA,0.197
ACCTGTT,-0.401
CATTAAT,0.333
AGATGTT,-0.227
CATTAGG,0.692
CATTTGC,1.02
CATTGAA,0.372
CATAACT,0.439
CATACAG,-0.024
CATTAGC,0.874

# Series 3 — technique: protein binding microarray; form: double-stranded DNA, one strand shown; medium: in vitro; concentration: not given; relative to: not given; direction: higher = stronger binding
# Target: Histone acetyltransferase KAT6A, winged helix 1, GST fusion (KAT6A, Homo sapiens, UniProt Q92794, residues 1-85)
# Setting: 8-mer, flanks averaged, mean of 2 arrays, mostly near background
# Construct (chain): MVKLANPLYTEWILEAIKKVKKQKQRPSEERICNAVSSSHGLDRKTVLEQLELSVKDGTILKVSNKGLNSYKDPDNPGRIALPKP
Sequence,E-score
ATCGAGGC,-0.0324
CGTCGAAA,0.188
CACAAAGA,-0.248
CCCTGTTC,-0.325
GAATAAGC,-0.108
TCTCTCCA,-0.143
ATAAATGA,-0.304
GGCTCCCC,0.00683
CTTTACAA,-0.165
TCGGCCAA,0.0621
CGCATGGA,0.0177
TATCACGA,-0.22
CAAGAAGA,-0.237
CTAACTCC,-0.0308
ATCTGAAC,-0.186
AAACTAAT,-0.0407
ACTTCTAT,-0.32
CTGCAGTC,-0.152
GTACCTCA,-0.182
CAAAAGGG,-0.137
AACATGGC,-0.0554
CCCCCAAC,-0.22
CGTCAGCC,0.153

# Series 4 — target: CEP164, C-terminal peptide (human); technique: DHFR complementation, deep sequencing; medium: yeast; relative to: wild type; direction: higher = weaker binding
# Setting: single substitutions, model-inferred values
# Starting sequence: PDZK1, PDZ domain 2 (human); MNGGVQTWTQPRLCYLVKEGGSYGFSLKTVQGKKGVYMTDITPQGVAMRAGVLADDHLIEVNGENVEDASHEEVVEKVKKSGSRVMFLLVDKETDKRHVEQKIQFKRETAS; partner HNRVKVYRF
Variant,binding free energy change [kcal/mol]
K18W,0.538
D68G,-0.0341
E60W,0.503
L53R,-0.124
L53Y,0.0818
Y15R,0.123
K77N,0.24
G35Q,1.02
D56A,0.065
E72G,0.565
K106I,-0.094
E108S,-0.137
R49K,-0.0315
Y15F,-0.0669
K33R,0.0468
V46S,0.389
H57Q,-0.371
K96T,-0.0353
G20Y,0.3
A69E,-0.0956
D68E,-0.0426
T94N,-0.0959
M48A,-0.216
T39C,-0.55
R84K,0.00489

# Series 5 — target: CCND3, cyclin fold, Cln2 fusion (human); technique: yeast growth competition, sequencing; medium: yeast; setting: weak parent motif; relative to: not given; direction: higher = stronger binding
# Starting sequence: RBL1 docking peptide (human); GSAKRRLFGEDPP; partner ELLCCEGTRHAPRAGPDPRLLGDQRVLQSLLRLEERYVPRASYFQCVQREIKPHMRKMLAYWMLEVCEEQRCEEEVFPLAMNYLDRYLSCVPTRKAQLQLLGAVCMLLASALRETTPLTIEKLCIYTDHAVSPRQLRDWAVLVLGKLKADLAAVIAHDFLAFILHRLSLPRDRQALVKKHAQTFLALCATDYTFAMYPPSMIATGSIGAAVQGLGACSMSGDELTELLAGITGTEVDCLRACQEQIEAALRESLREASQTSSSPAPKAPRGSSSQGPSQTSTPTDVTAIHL
Variant,normalised enrichment score
F8D,0.197
K4V,0.171
S2K,0.0858
E10P,0.129
E10H,0.175
K4P,0.0551
L7A,0.0621
P12V,0.139
F8M,0.105
G9N,0.1
R6T,0.122
G1T,0.138
A3I,0.015
F8Q,0.113
A3W,0.166
D11C,0.157
G9C,0.125
R6E,0.146
E10G,0.0411
E10A,0.102
S2I,0.138

# Series 6 — technique: RNA Bind-n-Seq; form: RNA; medium: in vitro; concentration: 365 nM; relative to: no-protein control; direction: higher = stronger binding
# Target: RNA binding protein fox-1 homolog 2, RRM domain, GST-SBP tag (RBFOX2, Homo sapiens, UniProt O43251-10, residues 100-194)
# Setting: natural RNA segment, single round, ends assumed
# Shared flanks, not repeated: GGGAGUUCUACAGUCCGACGAUC … UGGAAUUCUCGGGUGCCAA
# Residues (chain): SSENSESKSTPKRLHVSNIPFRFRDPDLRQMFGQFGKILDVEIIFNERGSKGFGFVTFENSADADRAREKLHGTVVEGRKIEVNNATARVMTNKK
Sequence,RBNS enrichment (R)
ACAUAGUGAGAUCCUAUCUCUAUAAAAAAUCAAAAAUUAGCCAGGCAUGGUGGUGCAUACCUAUAGUCCUGGCUAUUUGGGAGGCUGAGGCAGGAGGAUUGCUUUAGCCC,0.335
UUGUAAACUAUACUGCAUGCUGACAGAGAAGCGCUCUUUUAGCUAAGCCCAGAACUUCUCUUUUGACAAUAAAGUACUGAGCAGUGGUAUCAUGAGGGCCACCUCCACAU,0.945
UGCAGAAAAGCUCAGAGUAGGUGGGUAGGAGCCCUUCUCUUUGACUUAGGUUUUUAGGAGUCUGAGCAUCCAUCAAUACCUGUACUAUGAUGGGCUUCUGUUCUCUGCUG,0.237
CAUGCAUCCUUGGGCAGGUUGCCCUUAAAUCUUACACUGUGGUGAAGGGAUGUUUUUUUUGUAAUGCUGCAGUAGAGUUGGAGUACUUAGUUCUCUUGUUGUCCAGUAUA,1.11
CUAAAAUGUAGAGUUUUUUUGAUUGAGUAAUUAUACUUACUACUUAAUAAAUACUUAUUAAAAUGCUUAUUCUAAAGUACUAUGAUUUUAGUAAUGCUAUCAGUCCUCCA,0.651
AGUGCAGAUCCCCAUUUGCAGUAAGAUUGUACCUCAGCGGUACAAUUCCUCACCAAGGAAGUGGCUGCAGGGACACUGGUGCCACGGCUCCUGGGCCAGCCCUUAUGUCU,0.334
UGUUGUAAAGUUUUCCUAAACGAGGCUUUAACGUAAACACUGGUGACAUAAACCAUUCAUUGCUACCUUGCUUAUUGUGUUUUUACGCGGUUUUAUACUUUUUUUAUGAG,0.365
CUACAUAUCACGUGUGAGACAACUUCUUUCACAUCUCCAUAGUGCCCAGCAAAUUUGAGGCCUAUGGUAGUUGAGGUGCUCAACUAAUGUUUGUUGUAUGAACCAAGUGG,0.3
GUGGGCAGCCCUGCUCUCUGGACACCAGUGGGUCCUCAGCCCCCAUGGCAGGGGCUCCUCUGUCUGGCCUGCCUUUUUUUCCUGGUCAGCUGCUCUUAGCGCCGGCUCUG,0.373
AGACUUUUGACACUUUUAAAAAACAAAAAAAGACAAGAGAGAUGAAAACGUUUGAUUAUUUUCUCAGUGUAUUUUUGUAAAAAAUAUAUAAAGGGGGUGUUAAUCGGUGU,0.516
GGGCCCCAGCUCGCGGGACCCGACCCCCCGUGGGCUCCCGUGUUUUGUAGGAGACUUGCCAGAGCCGGGCACAUUGAGCUGUGCAACGCCGUGGGCUGCGUCCUUUGGUC,0.859
CAGCCUUCUCUUGGGAACAGCCGGGGCCAGGACUGGGUCACCUAUGAGCUGAAUCAGCAUCUCCUCCUGAGUCCCAGGGCCCCUGCAGUUCCCAGUCUCUUCUGUCCUGC,0.318

# Series 7 — technique: universal PBM; form: double-stranded DNA, one strand shown; medium: in vitro; concentration: not given; direction: higher = stronger binding
# Target: Sal-like protein 4, full length isoform B (SALL4, Homo sapiens, UniProt Q9UJQ4-2, residues 1-616)
# Setting: 8-mer, flanks averaged, mean of replicates
Sequence,E-score
ATGCAGCC,-0.0727
AAGCCTTC,-0.0354
ACTGCGAT,0.00912
GCGTATAC,0.121
CTTGTAGC,0.0331
ACTGCATC,-0.0478
CGCCATTC,-0.0568
ACCATGTG,0.0347
CCGCGCAC,-0.256
AGTACTAC,0.145
GGCTAACA,-0.19
CAGGCCGC,-0.332
CCGAACCG,-0.334
CTTCGAGC,-0.236
GGGCAGAA,-0.0684
ACTATTTG,0.252
GAACAGGA,-0.165
ACATGTCA,0.0874
TAAAGTAA,0.223
AAGTGCGT,-0.045
GATACTTA,0.0839
CGCTTTAG,-0.128
CTGTTCCA,-0.0751
GACTCAGC,-0.139
AACACATT,0.242

# Mixed results
Molecule,target,test,system,setting,how to read,endpoint,value
"PhoQ, residues 284 288 289 292 302 303 ALVSVA","PhoP, residues 12 14 15 18 19 VQALL (Escherichia coli, UniProt P23836)","Sort-seq, refers to: YFP reporter",E. coli,"PhoQ-PhoP variant library, together with: 10 µM Mg2+","relative to: high Mg2+ state, higher = stronger signaling",fold induction,16.6

# A few entries again (series 1):
Variant,relative binding score [%]
C72E,23.4
E4Y,24
R123K,61.9
S63A,55.9
D97R,21.2
D3Y,38.4
D95G,-7.82
R88N,12.4
Q10C,13
D48C,-2.33
V40F,-8.38
F47M,-1.14
